Measurements pooled from the literature.
A part holds a random share of what one study measured.
Chain of UniProt P45983 (whole entry, looked up): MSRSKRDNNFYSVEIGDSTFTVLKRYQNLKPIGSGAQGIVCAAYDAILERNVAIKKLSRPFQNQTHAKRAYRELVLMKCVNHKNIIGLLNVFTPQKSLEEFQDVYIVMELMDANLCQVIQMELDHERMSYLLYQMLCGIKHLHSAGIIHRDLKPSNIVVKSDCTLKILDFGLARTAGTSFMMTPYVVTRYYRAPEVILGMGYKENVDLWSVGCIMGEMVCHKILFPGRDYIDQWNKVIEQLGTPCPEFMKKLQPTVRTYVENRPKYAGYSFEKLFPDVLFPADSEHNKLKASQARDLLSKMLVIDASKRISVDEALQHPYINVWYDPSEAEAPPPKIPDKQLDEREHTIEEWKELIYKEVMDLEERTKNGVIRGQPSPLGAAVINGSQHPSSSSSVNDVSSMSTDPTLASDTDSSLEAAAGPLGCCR
Chain of UniProt Q13555 (whole entry, looked up): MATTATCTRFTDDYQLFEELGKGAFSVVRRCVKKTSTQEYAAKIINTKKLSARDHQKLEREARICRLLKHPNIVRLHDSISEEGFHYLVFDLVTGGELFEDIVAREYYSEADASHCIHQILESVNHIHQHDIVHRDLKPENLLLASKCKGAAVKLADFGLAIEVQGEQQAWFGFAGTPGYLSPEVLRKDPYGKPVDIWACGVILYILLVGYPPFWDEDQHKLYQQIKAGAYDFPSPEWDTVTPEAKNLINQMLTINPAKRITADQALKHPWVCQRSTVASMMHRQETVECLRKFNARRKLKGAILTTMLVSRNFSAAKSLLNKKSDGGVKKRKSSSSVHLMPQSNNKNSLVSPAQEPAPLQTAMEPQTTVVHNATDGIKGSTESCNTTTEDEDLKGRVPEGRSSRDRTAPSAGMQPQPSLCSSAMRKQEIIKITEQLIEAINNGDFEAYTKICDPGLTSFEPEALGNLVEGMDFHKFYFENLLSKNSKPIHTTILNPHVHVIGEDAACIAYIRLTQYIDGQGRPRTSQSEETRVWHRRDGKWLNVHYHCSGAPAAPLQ
Chain of UniProt Q9H1R3 (whole entry, looked up): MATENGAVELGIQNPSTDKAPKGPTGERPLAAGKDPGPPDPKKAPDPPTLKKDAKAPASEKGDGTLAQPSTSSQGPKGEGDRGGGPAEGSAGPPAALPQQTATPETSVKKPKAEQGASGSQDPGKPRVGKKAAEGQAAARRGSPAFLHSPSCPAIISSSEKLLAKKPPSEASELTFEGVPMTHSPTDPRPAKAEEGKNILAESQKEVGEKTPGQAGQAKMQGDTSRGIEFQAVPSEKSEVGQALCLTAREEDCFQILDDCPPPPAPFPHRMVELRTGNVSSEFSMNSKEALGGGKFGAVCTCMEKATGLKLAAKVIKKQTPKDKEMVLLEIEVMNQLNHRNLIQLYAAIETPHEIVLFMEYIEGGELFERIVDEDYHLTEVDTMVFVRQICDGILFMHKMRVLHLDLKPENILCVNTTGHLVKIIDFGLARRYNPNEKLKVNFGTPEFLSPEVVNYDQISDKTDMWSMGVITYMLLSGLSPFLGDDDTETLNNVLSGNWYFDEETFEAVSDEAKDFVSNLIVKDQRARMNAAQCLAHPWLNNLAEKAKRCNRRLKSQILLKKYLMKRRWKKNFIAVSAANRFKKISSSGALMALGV
Chain of UniProt Q9P289 (whole entry, looked up): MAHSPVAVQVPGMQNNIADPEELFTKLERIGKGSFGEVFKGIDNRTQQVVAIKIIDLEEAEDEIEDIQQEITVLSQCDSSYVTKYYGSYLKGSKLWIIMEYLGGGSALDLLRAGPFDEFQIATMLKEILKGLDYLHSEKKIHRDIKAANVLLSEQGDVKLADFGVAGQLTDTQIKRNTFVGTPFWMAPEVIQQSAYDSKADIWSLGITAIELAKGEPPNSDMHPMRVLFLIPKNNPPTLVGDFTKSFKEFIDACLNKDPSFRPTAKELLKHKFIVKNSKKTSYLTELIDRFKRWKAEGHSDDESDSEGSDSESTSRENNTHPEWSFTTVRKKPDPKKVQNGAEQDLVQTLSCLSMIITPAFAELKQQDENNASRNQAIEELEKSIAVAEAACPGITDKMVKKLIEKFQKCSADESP
Chain of UniProt Q9H093 (whole entry, looked up): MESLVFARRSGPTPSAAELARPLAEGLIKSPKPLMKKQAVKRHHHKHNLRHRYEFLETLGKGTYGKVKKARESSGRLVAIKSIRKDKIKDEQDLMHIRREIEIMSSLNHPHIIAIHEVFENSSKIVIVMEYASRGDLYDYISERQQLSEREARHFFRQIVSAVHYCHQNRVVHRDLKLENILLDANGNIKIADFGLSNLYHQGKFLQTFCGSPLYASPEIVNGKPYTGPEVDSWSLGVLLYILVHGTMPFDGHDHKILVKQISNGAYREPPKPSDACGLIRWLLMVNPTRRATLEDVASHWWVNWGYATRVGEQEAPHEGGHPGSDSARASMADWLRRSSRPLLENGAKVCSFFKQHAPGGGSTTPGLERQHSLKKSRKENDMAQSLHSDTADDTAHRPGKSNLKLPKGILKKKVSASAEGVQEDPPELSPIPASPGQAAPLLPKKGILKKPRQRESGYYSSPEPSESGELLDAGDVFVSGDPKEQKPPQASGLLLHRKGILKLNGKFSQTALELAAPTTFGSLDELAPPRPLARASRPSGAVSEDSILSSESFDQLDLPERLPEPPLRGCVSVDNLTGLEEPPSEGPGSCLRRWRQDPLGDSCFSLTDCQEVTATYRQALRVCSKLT
Chain of UniProt P29597 (whole entry, looked up): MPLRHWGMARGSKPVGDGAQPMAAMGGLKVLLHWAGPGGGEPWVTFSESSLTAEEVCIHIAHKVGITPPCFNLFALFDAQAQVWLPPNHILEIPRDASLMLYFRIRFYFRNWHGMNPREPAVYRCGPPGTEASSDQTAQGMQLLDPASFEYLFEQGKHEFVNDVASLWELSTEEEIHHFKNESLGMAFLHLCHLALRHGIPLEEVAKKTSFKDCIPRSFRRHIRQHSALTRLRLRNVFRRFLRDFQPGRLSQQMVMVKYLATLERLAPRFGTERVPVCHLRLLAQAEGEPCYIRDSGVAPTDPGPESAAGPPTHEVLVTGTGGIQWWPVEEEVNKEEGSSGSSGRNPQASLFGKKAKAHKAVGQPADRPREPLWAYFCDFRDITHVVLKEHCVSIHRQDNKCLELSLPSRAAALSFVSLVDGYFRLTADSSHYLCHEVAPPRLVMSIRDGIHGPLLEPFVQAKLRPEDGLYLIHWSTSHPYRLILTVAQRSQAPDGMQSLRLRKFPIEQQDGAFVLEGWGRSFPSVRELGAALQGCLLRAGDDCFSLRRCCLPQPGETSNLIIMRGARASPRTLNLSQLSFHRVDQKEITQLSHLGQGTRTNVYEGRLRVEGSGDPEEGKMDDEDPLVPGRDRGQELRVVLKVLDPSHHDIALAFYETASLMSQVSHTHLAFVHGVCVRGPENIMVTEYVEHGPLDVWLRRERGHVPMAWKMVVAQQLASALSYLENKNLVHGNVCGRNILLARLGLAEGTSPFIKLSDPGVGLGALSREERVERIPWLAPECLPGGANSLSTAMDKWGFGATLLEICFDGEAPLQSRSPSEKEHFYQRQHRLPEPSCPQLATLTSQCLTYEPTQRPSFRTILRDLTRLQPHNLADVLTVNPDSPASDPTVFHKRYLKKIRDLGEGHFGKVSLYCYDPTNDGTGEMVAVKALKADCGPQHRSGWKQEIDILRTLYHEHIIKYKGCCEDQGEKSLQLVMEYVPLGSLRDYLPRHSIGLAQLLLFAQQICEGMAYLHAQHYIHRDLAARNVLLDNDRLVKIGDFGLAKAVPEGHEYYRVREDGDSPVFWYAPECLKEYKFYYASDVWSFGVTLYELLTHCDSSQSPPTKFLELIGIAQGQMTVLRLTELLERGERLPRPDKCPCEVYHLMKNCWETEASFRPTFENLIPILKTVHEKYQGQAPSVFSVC
Chain of UniProt P61075 (whole entry, looked up): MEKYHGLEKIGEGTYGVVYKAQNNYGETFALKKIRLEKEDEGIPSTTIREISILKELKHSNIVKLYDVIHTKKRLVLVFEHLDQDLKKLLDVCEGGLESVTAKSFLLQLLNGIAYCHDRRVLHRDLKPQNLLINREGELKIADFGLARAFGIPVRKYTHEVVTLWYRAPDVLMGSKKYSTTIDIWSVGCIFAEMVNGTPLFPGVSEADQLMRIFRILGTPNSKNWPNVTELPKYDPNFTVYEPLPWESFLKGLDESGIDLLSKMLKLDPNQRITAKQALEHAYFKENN

Block 1 — observed: dsDNA unwinding; method: PicoGreen fluorescence; medium: annealed dsDNA substrate; tested at: 20 µM; measurement: effect
Compound = O=S(=O)(O)c1ccc(-c2c3nc(c(-c4ccc(S(=O)(=O)O)cc4)c4ccc([nH]4)c(-c4ccc(S(=O)(=O)O)cc4)c4nc(c(-c5ccc(S(=O)(=O)O)cc5)c5ccc2[nH]5)C=C4)C=C3)cc1; value = -0.69%
Compound = C[C@H](NC(=O)/C(C#N)=C/c1cccc(Br)n1)c1ccccc1; value = 2.95%
Compound = CC1OC2(CS1)CN1CCC2CC1 (stereo not drawn); value = 8.23%
Compound = CC(=O)C(=Cc1cc(O)c(O)c([N+](=O)[O-])c1)C(C)=O; value = 12.2%
Compound = CC(=O)[O][Pt]([NH2])([Cl])([Cl])([NH]C1CCCCC1)[O]C(C)=O; value = 5.86%
Compound = CCOC(=O)Nc1ccc(NCc2ccc(F)cc2)nc1N; value = 1.37%
Compound = CC(C)Nc1cccnc1N1CCN(C(=O)c2cc3cc(NS(C)(=O)=O)ccc3[nH]2)CC1; value = 15.8%
Compound = CC(C)N[C@@H]1CCn2c(=O)[nH]c3cccc(c32)[C@H]1O; value = 14.4%
Compound = COc1cc2c(cc1OC)-c1cc3ccc(OC)c(OC)c3c[n+]1CC2; value = 3.1%
Compound = O=c1c2ccccc2[se]n1-c1ccccc1; value = -2.05%
Compound = COC(=O)C1=C(C)NC(C)=C(C(=O)OC)C1c1ccccc1[N+](=O)[O-]; value = 2.66%
Compound = CN(C)CCOC(c1ccccc1)c1ccccc1.Cn1c(=O)c2[nH]c(Cl)nc2n(C)c1=O; value = 7.88%
Compound = Cc1ccc(C(=O)Nc2ccc(S(=O)(=O)O)c3cc(S(=O)(=O)O)cc(S(=O)(=O)O)c23)cc1NC(=O)c1cccc(NC(=O)Nc2cccc(C(=O)Nc3cc(C(=O)Nc4ccc(S(=O)(=O)O)c5cc(S(=O)(=O)O)cc(S(=O)(=O)O)c45)ccc3C)c2)c1; value = 37.9%
Compound = Nc1nnc(Sc2ncc([N+](=O)[O-])s2)s1; value = 16.8%
Compound = CCN(CC)C(=S)S; value = 10.1%
Compound = C=CC(=O)c1ccc2ccccc2c1; value = 10.2%
Compound = O=C(O[C@@H]1Cc2c(O)cc(O)cc2O[C@@H]1c1cc(O)c(O)c(O)c1)c1cc(O)c(O)c(O)c1; value = -6.08%
Compound = CN(C)C(=S)SC(=S)N(C)C; value = 7.92%
Compound = Oc1cc2c(cc1O)[C@@H]1c3ccc(O)c(O)c3OC[C@]1(O)C2; value = 1.87%
Compound = CCN(CC)C(=S)SSC(=S)N(CC)CC; value = 12.2%
Compound = CN(C)C(=S)SSC(=S)N(C)C; value = 5.32%

Block 2 — observed: enzyme activity; mode: inhibitor; tested at: 0.5 µM; baseline: control; measurement: remaining activity
Compound: COc1ccc2c(c[n+](C)c3c4cc5c(cc4ccc23)OCO5)c1OC
target = Mitogen-activated protein kinase 8 (MAPK8, Homo sapiens, UniProt P45983); value = 89.8%
target = Non-receptor tyrosine-protein kinase TYK2 (TYK2, Homo sapiens, UniProt P29597); value = 108%
target = Interleukin-1 receptor-associated kinase 1 (IRAK1, Homo sapiens, UniProt P51617); value = 103%
target = Calcium/calmodulin-dependent protein kinase type II subunit gamma (CAMK2G, Homo sapiens, UniProt Q13555); value = 95.9%
target = Casein kinase I isoform gamma-1 (CSNK1G1, Homo sapiens, UniProt Q9HCP0); value = 106%
target = Ephrin type-A receptor 1 (EPHA1, Homo sapiens, UniProt P21709); value = 98.3%
target = Serine/threonine-protein kinase 26 (STK26, Homo sapiens, UniProt Q9P289); value = 89.4%
target = Receptor tyrosine-protein kinase erbB-4 (ERBB4, Homo sapiens, UniProt Q15303); value = 99.9%
target = Myosin light chain kinase 2, skeletal/cardiac muscle (MYLK2, Homo sapiens, UniProt Q9H1R3); value = 95.3%
target = NUAK family SNF1-like kinase 2 (NUAK2, Homo sapiens, UniProt Q9H093); value = 98.9%

Block 3 — observed: enzyme activity; mode: inhibitor; tested at: 10 µM; measurement: inhibition
Target: Calcium/calmodulin-dependent protein kinase type II subunit alpha (CAMK2A, Homo sapiens, UniProt Q9UQM7)
Chain of UniProt Q9UQM7 (whole entry, looked up): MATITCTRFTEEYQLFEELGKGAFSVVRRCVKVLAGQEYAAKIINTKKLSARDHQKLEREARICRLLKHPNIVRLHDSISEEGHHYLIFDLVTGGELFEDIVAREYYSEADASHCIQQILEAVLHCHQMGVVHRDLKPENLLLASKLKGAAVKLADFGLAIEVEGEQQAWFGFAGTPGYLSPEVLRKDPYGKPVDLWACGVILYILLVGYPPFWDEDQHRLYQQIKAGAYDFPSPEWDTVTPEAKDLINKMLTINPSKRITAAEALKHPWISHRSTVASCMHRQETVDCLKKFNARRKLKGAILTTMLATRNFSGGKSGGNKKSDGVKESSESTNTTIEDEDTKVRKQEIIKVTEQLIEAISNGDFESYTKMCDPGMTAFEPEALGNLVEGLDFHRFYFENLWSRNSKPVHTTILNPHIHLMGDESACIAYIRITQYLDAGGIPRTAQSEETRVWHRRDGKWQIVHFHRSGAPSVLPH
Structure (SMILES) = CC(=O)O[C@H]1C(=O)[C@@]2(C)[C@H]([C@H](OC(=O)c3ccccc3)[C@]3(O)C[C@H](O)C(C)=C1C3(C)C)[C@]1(OC(C)=O)CO[C@@H]1C[C@@H]2O; value = -13%
Structure (SMILES) = CC(C)(O)C(Cl)(Cl)Cl; value = -8%
Structure (SMILES) = C[C@H]1CC[C@]2(NC1)O[C@H]1C[C@H]3[C@@H]4CC[C@H]5C[C@@H](O[C@@H]6O[C@H](CO)[C@H](O[C@@H]7O[C@H](CO)[C@@H](O)[C@H](O[C@@H]8OC[C@@H](O)[C@H](O)[C@H]8O)[C@H]7O[C@@H]7O[C@H](CO)[C@@H](O)[C@H](O)[C@H]7O)[C@H](O)[C@H]6O)CC[C@]5(C)[C@H]4CC[C@]3(C)[C@H]1[C@@H]2C; value = 10%
Structure (SMILES) = C[C@@H]1CC[C@H]2[C@@H](C)C(=O)O[C@@H]3O[C@@]4(C)CC[C@@H]1[C@]32OO4; value = 0%
Structure (SMILES) = C=C1CC[C@H]2[C@@H](/C=C(\C)C(=O)[C@@]3(OC(C)=O)C[C@H](C)[C@H](OC(=O)c4ccccc4)[C@@H]3[C@H]1OC(C)=O)C2(C)C; value = -7%
Structure (SMILES) = CN(C)Cc1c[nH]c2ccccc12; value = -34%
Structure (SMILES) = COC[C@]12CN(C)[C@@H]3[C@@H]4[C@H](OC)[C@H]1[C@@]3([C@@H](OC)C[C@H]2O)[C@@H]1C[C@@]2(O)[C@H](OC(=O)c3ccccc3)[C@@H]1[C@]4(OC(C)=O)[C@@H](O)[C@@H]2OC; value = -55%

Single results of other studies
Tspo: Translocator protein (Tspo, Rattus norvegicus, UniProt P16257)
Chain of UniProt P16257 (whole entry, looked up): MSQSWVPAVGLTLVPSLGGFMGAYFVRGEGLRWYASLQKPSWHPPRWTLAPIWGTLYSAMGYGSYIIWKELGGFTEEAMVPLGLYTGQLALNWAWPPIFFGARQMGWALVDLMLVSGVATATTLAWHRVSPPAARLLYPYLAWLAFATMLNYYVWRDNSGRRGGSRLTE
SMILES = O=C(Nc1cccnn1)N1CCC(=Cc2cccc(Oc3ccc(C(F)(F)F)cn3)c2)CC1; target = Cyclin-dependent kinase 2 homolog (CRK2, Plasmodium falciparum, UniProt P61075); observed = cell-free assay; method = competition with immobilised ligand; tested at = 1 µM; measurement = remaining binding; value = 100%
SMILES = Cn1nc(C(=O)NCc2ccc(C(=O)O)cc2)cc1-c1ccc2[nH]ccc2c1; target = Serine/threonine-protein kinase PknB (pknB, Mycobacterium tuberculosis, UniProt P9WI81); observed = cell-free assay; method = competition with immobilised ligand; tested at = 0.1 µM; measurement = remaining binding; value = 76%
SMILES = Cn1cncc1[C@@](O)(COc1ccc(C#N)cc1-c1ccc(OC(F)(F)F)cc1)c1ccc(C#N)cc1; target = Tspo; observed = radioligand binding; method = radioligand displacement; tested at = 10 µM; measurement = inhibition; value = 9.56%
SMILES = N#CC1(c2ccccn2)CCN(Cc2cc(C(=O)O)c(=O)n3ccccc23)CC1; target = Tspo; observed = radioligand binding; method = radioligand displacement; tested at = 10 µM; measurement = inhibition; value = 7.88%
